# Measured values gathered from unrelated publications.
# Each line is one published result; not all experiments were run side by side. Values joined by “and” are separate records of one study, mostly repeats; a detail may differ. ± gives the spread as reported.
# Chain of UniProt P49840 (whole entry, looked up): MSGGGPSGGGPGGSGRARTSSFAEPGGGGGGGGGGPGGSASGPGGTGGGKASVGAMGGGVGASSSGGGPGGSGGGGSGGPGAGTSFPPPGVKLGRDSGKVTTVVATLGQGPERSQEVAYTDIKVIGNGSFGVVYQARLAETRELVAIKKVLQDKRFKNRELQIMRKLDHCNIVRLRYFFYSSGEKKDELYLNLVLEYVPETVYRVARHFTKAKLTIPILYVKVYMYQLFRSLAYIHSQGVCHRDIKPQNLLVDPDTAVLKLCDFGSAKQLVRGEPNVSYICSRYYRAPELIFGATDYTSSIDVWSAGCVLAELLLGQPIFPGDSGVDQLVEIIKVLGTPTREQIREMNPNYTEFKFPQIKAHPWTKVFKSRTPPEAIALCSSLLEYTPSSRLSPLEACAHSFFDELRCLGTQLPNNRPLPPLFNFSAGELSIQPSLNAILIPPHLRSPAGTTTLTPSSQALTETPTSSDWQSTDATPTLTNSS
# Chain of UniProt Q9Y2K6 (whole entry, looked up): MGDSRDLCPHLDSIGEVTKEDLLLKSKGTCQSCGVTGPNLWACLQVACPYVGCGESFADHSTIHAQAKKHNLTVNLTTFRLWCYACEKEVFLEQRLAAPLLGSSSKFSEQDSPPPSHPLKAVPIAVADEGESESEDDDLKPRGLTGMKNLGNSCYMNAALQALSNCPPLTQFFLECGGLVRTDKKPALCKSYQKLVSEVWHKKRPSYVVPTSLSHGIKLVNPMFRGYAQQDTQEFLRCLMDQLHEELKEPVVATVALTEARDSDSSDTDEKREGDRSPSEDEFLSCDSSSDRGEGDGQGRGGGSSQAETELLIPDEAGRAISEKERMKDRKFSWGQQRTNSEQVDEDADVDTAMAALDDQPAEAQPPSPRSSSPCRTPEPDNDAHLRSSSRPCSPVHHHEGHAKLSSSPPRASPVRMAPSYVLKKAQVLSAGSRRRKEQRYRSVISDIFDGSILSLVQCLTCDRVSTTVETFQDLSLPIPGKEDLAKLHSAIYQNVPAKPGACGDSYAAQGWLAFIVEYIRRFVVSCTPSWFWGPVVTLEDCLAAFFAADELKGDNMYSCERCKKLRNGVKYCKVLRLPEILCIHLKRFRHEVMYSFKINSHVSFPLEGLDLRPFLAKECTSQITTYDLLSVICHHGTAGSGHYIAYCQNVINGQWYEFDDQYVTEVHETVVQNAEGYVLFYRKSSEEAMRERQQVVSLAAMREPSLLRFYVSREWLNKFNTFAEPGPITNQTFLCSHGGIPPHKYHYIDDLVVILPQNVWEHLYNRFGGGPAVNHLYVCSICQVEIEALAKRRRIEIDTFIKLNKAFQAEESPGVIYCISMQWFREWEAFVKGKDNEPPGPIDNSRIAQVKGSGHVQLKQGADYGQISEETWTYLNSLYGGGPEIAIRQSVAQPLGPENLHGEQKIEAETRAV
SMILES,tested on,assay,test system,conditions,how to read,measurement,result
CCn1c(-c2nonc2N)nc2cncc(CNC3CCNCC3)c21,SK-OV-3,ATP,2D monolayer culture,"10 µM, 4 days",baseline: untreated,relative cell number,50.6%
CC[C@@H]1[C@H](F)C(=O)N[C@@H]1COc1nccc2cc(C(N)=O)c(OC)cc12,"GSK3A (Homo sapiens, UniProt P49840)","ATP-site probe binding, ActivX profiling",THP-1 cell lysate,"0.01 mM, Lys2 site",,inhibition,-6%
O=C(O)CO,,"binding, equilibrium dialysis LC-MS",,"5 µM, thermostabilized A2AR-BRIL construct","baseline: no-protein control, direction not given",z-scored log2 fold change,-0.209
C=CC(=O)N1CCC([C@@H]2CCNc3c(C(N)=O)c(-c4ccc(Oc5ccccc5)cc4)nn32)CC1,Ramos,"calcium flux, FLIPR",,2 h preincubation,,maximum inhibition,89.7%
CCCS(=O)(=O)Nc1ccc(F)c(C(=O)c2c[nH]c3ncc(Cl)cc23)c1F,iCell Cardiomyocytes (hiPSC-derived),CellTiter-Glo,,"concentration not given, 24 h",baseline: control,ATP level,107%
Cc1cn([C@@H]2O[C@H](CO)[C@@H](O)[C@H]2O)c(=O)[nH]c1=O,,"binding, equilibrium dialysis LC-MS",,"5 µM, thermostabilized A2AR-BRIL construct","baseline: no-protein control, direction not given",z-scored log2 fold change,0.293
Cc1nc(N(Cc2ccccc2)c2ccc3c(c2)/C(=C/c2ccccc2)C(=O)N3Cc2ccccc2)c2ccccc2n1 (mixture of isomers),A549,,,"0.3 µM, 24 h",baseline: untreated,reduction of wound healing rate,20.2%
Fc1ccc(CNc2ccc3nc(COCc4ccccc4)[nH]c3c2)cc1,sample A patient iPSC NPCs,"cell protection, MTS",,"up to 100 µM, 24 h",,Emax,26%
OC1CCN(c2ccc(/C=N/NC(=S)NC3CCCCC3)cc2)CC1,BEAS-2B and A549,MTT,,,baseline: IC50 BEAS-2B over IC50 A549,selectivity ratio,3.8
COc1ccc2ccnc(Cc3ccc(OC)c(OC)c3)c2c1,A549,"mitochondrial oxygen consumption, Seahorse XF96",,10 µM,,inhibition,48%
CN(C)C[C@@H]1CCn2cc(c3ccccc32)C2=C(C(=O)NC2=O)c2cn(c3ccccc23)CCO1,iCell Cardiomyocytes (hiPSC-derived),cellular impedance,,"concentration not given, 24 h",baseline: control,cell index,100%
CN1CCN(c2ccc3nc(-c4c(N)c5c(F)cccc5[nH]c4=O)[nH]c3c2)CC1,ARPE-19 HiBiT fibulin-3,HiBiT luminescence,,5 µM,,fibulin-3 level,-44%
CCOc1ccc(-c2nc3cc(-c4nc5cc(N6CCN(C)CC6)ccc5[nH]4)ccc3[nH]2)cc1OCC,NCI/ADR-RES,"cell growth, NCI-60 SRB",,"10 µM, 48 h",,growth percent,104%
C[C@H]1Oc2cc(cnc2N)-c2c(nn(C)c2C#N)CN(C)C(=O)c2ccc(F)cc21,Ba/F3 EML4-ALK variant 1 S1206F,cell viability,,,,Emax,100%
CCc1cnc(N2CCC(c3nc(COc4ccc(-n5cnnn5)cc4)cs3)CC2)nc1,HEK293T,"RNA-seq, measured: SERPINH1 mRNA",,"10 µM, 6 h",baseline: vehicle,log2 fold change,-0.176
O=C(/C=C/C=C/C=C/C1CCCCC1)NC1=C[C@@](O)(/C=C/C=C/C=C/C(=O)NC2=C(O)CCC2=O)[C@@H]2O[C@@H]2C1=O,NCI-N87,"cell growth, CellTiter-Glo",,78 h,,GI50,12700 nM
Cn1cc(-n2cnc3c(NCc4nc5cc(Cl)c(Cl)cc5[nH]4)nc(N4CCOCC4)nc32)cn1,MDA-MB-231,"qRT-PCR, measured: FANCD2",,"0.05 µM, 6 h, unit not given",baseline: DMSO,mRNA level,0.952 and 0.824 and 0.905
Cc1nc(Nc2ncc(C(=O)Nc3c(C)cccc3Cl)s2)cc(N2CCN(CCO)CC2)n1,iCell Cardiomyocytes (hiPSC-derived),xCELLigence Cardio impedance,,"concentration not given, 2 h",baseline: control,beat amplitude,99.6%
CCn1cc(-c2cc(Cn3ccoc3=N)cc3c2CCN([C@@H](C)c2cc(OC)ccn2)C3=O)c(C(F)(F)F)n1,Detroit 562,cell growth,,120 h,,EC50,> 30000 nM
CSc1cc(Oc2ccnc3[nH]c(=O)cnc23)ccc1NC(=O)Nc1cc(C(C)(C)C)nn1-c1ccccc1,patient-derived cell lines,reverse phase protein array,,"1 µM, 4 h, mean of three patients",baseline: DMSO,phospho-Ser73 c-Jun to total ratio,0.79
CCCN1CCN(c2ccc3[nH]c(-c4ccc5[nH]c(-c6ccc(OCC)c(OCC)c6)nc5c4)nc3c2)CC1,BT-549,SRB,,"10 µM, 48 h",,growth percent,-64%
C=CC(=O)N1CCC[C@@H](n2nc(-c3ccc(Oc4ccccc4)cc3)c3c(N)ncnc32)C1,Ramos,"calcium flux, FLIPR",,1 h preincubation,,IC50,2.87 nM
Cn1cc(-c2ccc(-c3cncc(Cl)c3N3CCC4(CCNC4=O)CC3)cc2)cn1,COLO 205,"gene expression, microarray, measured: RPSA mRNA",,"concentration not given, 2 h",baseline: untreated cells,log2 fold change,-2.7
CCc1c(-c2ccccc2)c(-c2ccccc2)nn1-c1ccccc1-c1cccc(OCC(=O)O)c1,mouse bone marrow macrophages,"osteoclast differentiation, inhibitor, TRAP staining",,"0.1 µM, together with: M-CSF and RANKL",,normalized response,74.8% and 83.6% and 94.1% and 78.8% and 99.7% and 70%
C=C(c1ccc(O)c(Oc2cc3c(cc2OC)CCN(C)[C@@H]3Cc2ccc(OC)cc2)c1)[C@H]1c2cc(O)c(OC)cc2CCN1C,3T3-L1,"adipocyte lipid accumulation, Nile Red staining",,1 µM,,inhibition,13.4 ± 0.5%
COc1ccc2c(N(C)c3ccc(/C(C)=N/OCCN)cc3)c3c(Cl)coc3nc2c1,LNCaP C-81,DCF-DA flow cytometry,,"concentration not given, 72 h, steroid-reduced medium",,increase in total ROS,~60%
CC(C)C[C@H](NC(=O)C[C@H](O)[C@H](CC(C)C)NC(=O)[C@H](Cc1c[nH]cn1)NC(=O)CNC(=O)[C@@H](NC(=O)[C@H](C)NC(=O)[C@H](Cc1c[nH]c2ccccc12)NC(=O)[C@H](CCC(N)=O)NC(=O)[C@@H](Cc1ccccc1)NC(=O)COCCOCCNC(=O)CCC(C(=O)O)N1CCN(CC(=O)O)CCN(CC(=O)O)CCN(CC(=O)O)CC1)C(C)C)C(N)=O (stereo partly drawn) [lutetium-177 labelled],,,"BALB/c nu/nu mice, skin","intravenous, 500 pmol, 1 h, together with: PA 300 µg",,tissue uptake,0.33 ± 0.05 %ID/g
Cc1ccc2nc(NCCN)c3ncc(C)n3c2c1,iCell Cardiomyocytes (hiPSC-derived),xCELLigence Cardio impedance,,"concentration not given, 2 h",baseline: control,beat amplitude,102%
O=C(NCCCNS(=O)(=O)c1ccc(OC(F)(F)F)cc1)C1=Cc2ccccc2S1(=O)=O,HEK293,"immunoblotting, measured: REST protein",,after compound removal,,recovery half-time,~24 h
Cc1cccc(-c2[nH]c(CNc3ccccc3F)nc2-c2ccc3ncnn3c2)n1,MM1.S,XTT,,1.2 µM,,viability,49% and 53% and 51%
CC(C)(C)c1cc(NC(=O)Nc2ccc(-c3cn4c(n3)sc3cc(OCCN5CCOCC5)ccc34)cc2)no1,iCell Cardiomyocytes (hiPSC-derived),CellTiter-Glo,,"concentration not given, 24 h",baseline: control,ATP level,104%
O=C(O)CCC(=O)c1ccc(S(=O)(=O)N2CCCC2)cc1,"Ubiquitin carboxyl-terminal hydrolase 20, ZnF-UBD domain (USP20, Homo sapiens, UniProt Q9Y2K6)",,,,,Kd,798000 nM
Cc1cc(Nc2ncc(Cl)c(Nc3ccccc3S(=O)(=O)C(C)C)n2)c(OC(C)C)cc1C1CCNCC1,CLB-GE,"phosphoproteomics LC-MS/MS, measured: ATR phosphorylation",,"200 nM, 60 min",baseline: untreated,log2 fold change,-2.06
C[C@@H](Oc1cc(-n2cnc3ccc(CN4CCN(C)CC4)cc32)sc1C(N)=O)c1ccccc1C(F)(F)F,iCell Cardiomyocytes (hiPSC-derived),CellTiter-Glo,,"concentration not given, 24 h",baseline: control,ATP level,102%
Clc1ccc(C2(c3ccc(-c4cn[nH]c4)cc3)CCNCC2)cc1,SK-OV-3,ATP,,"0.1 µM, 4 days, 3D U-bottom low-attachment",baseline: untreated,relative cell number,122%
COc1ccc(-n2nc(C(C)=O)s/c2=N\N=C(/C)c2ccc(NC(=O)c3ccc(Cl)cc3)cc2)cc1,MCF7,,,10 µM,,toxicity,96.5%
CNC(=O)c1cc(Oc2ccc(NC(=O)Nc3ccc(Cl)c(C(F)(F)F)c3)cc2)ccn1,iCell Cardiomyocytes (hiPSC-derived),xCELLigence Cardio impedance,,"concentration not given, 2 h",baseline: control,beat amplitude,98.7%
C[C@H]1C[C@H]2[C@@H]3CCC4=CC(=O)C=C[C@]4(C)[C@H]3C(=O)C[C@]2(C)[C@@]1(O)C(=O)CO,HepaRG,ROS-Glo,,,,maximal ROS response,-53.6 ± 71.2%
Cn1cc(-c2ccc(F)c(C(F)(F)F)c2)nc1C1CCN(c2ncnc3[nH]ncc23)CC1,SK-OV-3,ATP,,"0.01 µM, 4 days, 3D U-bottom low-attachment",baseline: untreated,relative cell number,109%
Cc1nc(NC(=O)N2CCC[C@H]2C(N)=O)sc1-c1ccnc(C(C)(C)C(F)(F)F)c1,T47D,CellTiter-Glo,,120 h,,Hill coefficient,1.38
C[C@H]1CN(C2COC2)CCN1c1ccc(Nc2cc(-c3ccnc(N4CCn5c(cc6c5CC(C)(C)C6)C4=O)c3CO)cn(C)c2=O)nc1,Ramos,"calcium flux, FLIPR",,1 h preincubation,,IC50,4.95 nM
CCn1cc(-c2cc(Cn3ccnc3)cc3c2CCN([C@H](c2cc(OC)ccn2)C2CC2)C3=O)c(C(F)(F)F)n1,CAL-120,"cell growth, inhibitor",,120 h,,EC50,78.9 nM
CC1(C)CNc2cc(NC(=O)c3cccnc3NCc3ccncc3)ccc21,iCell Cardiomyocytes (hiPSC-derived),xCELLigence Cardio impedance,,"concentration not given, 2 h",baseline: control,beat amplitude,98.3%
COc1cnc2cccc(N3CCc4c(cc(Cn5ccnc5C)cc4-c4cn(C)nc4C(F)(F)F)C3=O)c2c1,HCC15,"cell growth, inhibitor",,120 h,,EC50,13600 nM
C[C@]12CCCN1CC1=NNC(=O)c3cc(F)cc4[nH]c2c1c34,HCT-15 colorectal cancer cells,cell viability,,"concentration not given, together with: with temozolomide",,EC50,1900 nM

# For quick reference, copied from above:
SMILES,tested on,assay,test system,conditions,how to read,measurement,result
CCCN1CCN(c2ccc3[nH]c(-c4ccc5[nH]c(-c6ccc(OCC)c(OCC)c6)nc5c4)nc3c2)CC1,BT-549,SRB,,"10 µM, 48 h",,growth percent,-64%
CCCS(=O)(=O)Nc1ccc(F)c(C(=O)c2c[nH]c3ncc(Cl)cc23)c1F,iCell Cardiomyocytes (hiPSC-derived),CellTiter-Glo,,"concentration not given, 24 h",baseline: control,ATP level,107%
CCn1cc(-c2cc(Cn3ccoc3=N)cc3c2CCN([C@@H](C)c2cc(OC)ccn2)C3=O)c(C(F)(F)F)n1,Detroit 562,cell growth,,120 h,,EC50,> 30000 nM
